Published values pooled from the literature.
Protocols differ between the studies behind these lines.
Sample: plasma

| Structure (SMILES) | system | setting | how to read | measurement | value |
| --- | --- | --- | --- | --- | --- |
| NC(=O)/C=C/c1cccc(S(=O)(=O)Nc2ccccc2)c1 | human, severe liver dysfunction | intravenous, 400 mg/m^2 belinostat, cycle 1 day -7, geometric mean | reference: metabolite over belinostat | Cmax metabolic ratio | 0.0759 |
| CN[C@@H](CCOc1cccc2ccccc12)c1ccccc1 | healthy male human | oral, dose not given, together with: dapoxetine with udenafil | reference: combination over dapoxetine alone | Cmax geometric mean ratio | 0.879 |
| O=C(O)/C=C/c1cccc(S(=O)(=O)Nc2ccccc2)c1 | human, severe liver dysfunction | intravenous, 400 mg/m^2 belinostat, cycle 1 day -7, geometric mean | reference: metabolite over belinostat | Cmax metabolic ratio | 0.0806 |
| Cn1c(=O)oc2ccc(-c3ccc(CC(C#N)NC(=O)C4CNCCCO4)c(F)c3)cc21 (stereo not shown) | human volunteers | 40 mg single dose, fasted, geometric mean | – | Cmax | 247 ng/mL |
| O=C(O)c1cccc(S(=O)(=O)Nc2ccccc2)c1 | human, mild liver dysfunction | intravenous, 400 mg/m^2 belinostat, cycle 1 day -7, geometric mean | reference: metabolite over belinostat | Cmax metabolic ratio | 0.087 |
| CCc1c2c(nc3ccc(O)cc13)-c1cc3c(c(=O)n1C2)COC(=O)[C@]3(O)CC | human patients | intravenous, 12 mg/m2 of parent drug | – | Cmax | 30 ng/mL |
| CCc1cc(Nc2nc(-c3ccc(-n4cnc(C)c4)c(F)c3)cs2)c(C)cc1C | human, both sexes | oral, 200 mg, day 1, multiple dose, geometric mean | – | Cmax | 496 ng/mL |
| CN1CCC[C@]1(C)/C=C/S(=O)(=O)NC(=O)Nc1c2c(cc3c1CCC3)CCC2 | human | oral, 100 mg twice daily, day 14, multiple ascending dose | – | Cmax after second dose | 16100 ng/mL |
| O=C(CCc1ccc(CNC(C(=O)O)C2CCCCC2)cn1)NO (stereo not shown) | human | oral, 40 mg once daily, day 7, geometric mean | – | Cmax | 181 ng/mL |
| CC(=O)N[C@H](CC(=O)O)C(=O)N[C@H](Cc1c[nH]c2ccccc12)C(=O)N[C@H](Cc1ccccc1)C(=O)N[C@H](CCCCN)C(=O)N[C@H](C)C(=O)N[C@H](Cc1ccccc1)C(=O)N[C@H](Cc1ccc(O)cc1)C(=O)N[C@H](CC(=O)O)C(=O)N[C@H](CCCCN)C(=O)N[C@@H](C(=O)N[C@H](C)C(=O)N[C@H](CCC(=O)O)C(=O)N[C@H](CCCCN)C(=O)N[C@H](Cc1ccccc1)C(=O)N[C@H](CCCCN)C(=O)N[C@H](CCC(=O)O)C(=O)N[C@H](C)C(=O)N[C@H](Cc1ccccc1)C(N)=O)C(C)C | human, statin-treated high-risk CHD, both sexes | oral, 500 mg daily, day 13, 0 to 8 h, mean, undetectable set to 0, outlier woman excluded | – | Cmax | 37.1 ng/mL |

Excerpt of the above:
| Structure (SMILES) | system | setting | how to read | measurement | value |
| --- | --- | --- | --- | --- | --- |
| CCc1cc(Nc2nc(-c3ccc(-n4cnc(C)c4)c(F)c3)cs2)c(C)cc1C | human, both sexes | oral, 200 mg, day 1, multiple dose, geometric mean | – | Cmax | 496 ng/mL |
